Measurements pooled from the literature.
Compare with care: the assays were run in different laboratories. “And” joins repeats or separate records; there may be more than shown.
CDK5 with p25: Cyclin-dependent kinase 5, with p25 (CDK5, Homo sapiens, UniProt Q00535)
CDK5 with p35: Cyclin-dependent kinase 5, with p35 (CDK5, Homo sapiens, UniProt Q00535)
CDK5: Cyclin-dependent kinase 5 (CDK5, Homo sapiens, UniProt Q00535)

SMILES	target	test	setting	scale	endpoint	value
C=CC(=O)Nc1cccc(-c2cnc3[nH]cc(C(=O)NC(C)(C)C)c3n2)c1	CDK5 with p25	enzyme activity, inhibitor	0.1 µM	–	inhibition	16%
C=CC(=O)N1Cc2nc(-c3cc(-c4cc(Cl)cnc4Cl)c(F)cc3F)n(-c3ccncn3)c2C1	CDK5 with p25	cell-free assay, inhibitor	1 µM	–	inhibition	3.2%
COc1ccc(NC(=O)Nc2ccc3c(c2)C(=O)N(C(C)CO)CC(C)C(CN(C)Cc2ccc4c(c2)OCO4)O3)cc1 (stereo not shown)	CDK5 with p35	kinase activity, KinaseProfiler	0.03 µM, species human	baseline: control	remaining activity	97%
Cc1cc(C)nc(Nc2ccc([C@@H]3CCCN(C(=O)/C=C/c4c(C)nn(C)c4C)C3)nc2)n1	CDK5 with p35	enzyme activity, inhibitor, ADP detection	1 µM	–	activity vs control	101%
COCC12C(=O)NC3C4(C(OC)CC1O)C1CC5(O)C(OC)C(O)C(OC(C)=O)(C1C5OC(=O)c1ccccc1)C3(O)C(OC)C24 (stereo not shown)	CDK5 with p35	kinase activity, inhibitor, ProQinase kinase profiling	25 µM	baseline: control	remaining activity	107% and 105%
Cc1ccc(-c2c(/C=C(\C#N)C(=O)NC(C)C)n(CCCO)c3ncnc(N)c23)cc1	CDK5	cell-free assay, competition with immobilised ligand	1 µM	–	remaining binding	88%
CCN1CCN(Cc2ccc(C(=O)Nc3ccc(C)c(NCc4cnc5[nH]ccc5c4OC)c3)cc2C(F)(F)F)CC1	CDK5	binding, competition with immobilised ligand	1 µM	–	remaining binding	100%
Nc1ncc2c(n1)-c1c([nH]c3ccc(C4=CCOCC4)cc13)CCC2	CDK5	binding, competition with immobilised ligand	1 µM	–	remaining binding	93%
CN1CCN(Cc2ccc(-c3ccc(CO[C@H]4CCC[C@@H]4NC(=O)c4cc(-c5cnn(C)c5)cnc4N)cc3)cc2)CC1	Cyclin-dependent kinase 5, inactive (CDK5, Homo sapiens, UniProt Q00535)	SelectScreen kinase profiling	0.1 µM	–	inhibition	8%
COc1cc(Nc2nccc(-c3cnn4nc(OC)ccc34)n2)cc(C(F)(F)F)c1	CDK5	binding, competition with immobilised ligand	1 µM	–	remaining binding	88%
CNC(=O)C[C@H](Cc1ccc(C#N)cc1)NC(=O)c1cc(-c2ccc(CN[C@H](C)c3ccc(C)cc3)o2)ccc1Cl	CDK5 with p35	enzyme activity, inhibitor	1 µM	–	activity vs control	104%
O=C(Cc1ccc(OCc2ccccc2)cc1)NC1(C(=O)O)CCN(C(=O)c2ccc(-c3cccc(Cl)c3)cc2)CC1	CDK5 with p25	enzyme activity, inhibitor	10 µM	–	activity vs control	102%
CCc1nnc(Nc2cnc([C@@H]3CCCN(C(=O)CCc4cccnc4)C3)cn2)s1	CDK5 with p25	enzyme activity, inhibitor, ADP detection	1 µM	–	activity vs control	115%
C=CC(=O)N1CCCC(n2c(=O)c3ncccc3n(Cc3ccc(Oc4ccccc4)cc3)c2=O)C1 (stereo not shown)	CDK5	cell-free assay, competition with immobilised ligand	1 µM	–	remaining binding	100%
Cc1cccc(O[C@H]2CCC[C@@H](C(C)CNCc3ccncc3)C2)c1 (relative stereo)	CDK5	enzyme activity, inhibitor	1 µM	–	inhibition	0%
CN1C[C@@H](c2c[nH]c3cc(Br)ccc23)NC[C@@H]1c1c[nH]c2cc(Br)ccc12	CDK5 with p35	enzyme activity, inhibitor	10 µM	–	remaining activity	98%
Nc1ncc(-c2cc(-c3cnn(CC(F)(F)F)c3)ncc2F)nc1C(=O)NC1CNCC(F)C1 (stereo not shown)	CDK5 with p25	enzyme activity	1 µM	baseline: DMSO control	remaining activity	91.1%
Cc1cc(C)nc(Nc2ccc([C@@H]3CCCN(C(=O)/C=C/c4csc(C)n4)C3)nc2)n1	CDK5 with p25	enzyme activity, inhibitor, ADP detection	1 µM	–	activity vs control	92%
COc1c(OCCCN2CCOCC2)ccc2c1N=C(NC(=O)c1cnc(N)nc1)N1CCN=C21	CDK5 with p35	kinase activity, inhibitor	1 µM	baseline: untreated control	remaining activity	104%
O=C=[N][Ru-4]123([n]4c5ccc(O)cc5c5c6c(c7cc(F)c[n+]1c7c54)C(=O)NC6=O)[S+]1CC[S+]2CC[S+]3CC1 (stereo not shown)	CDK5 with p25	enzyme activity	100 nM, human enzyme, with: 10 µM ATP	baseline: untreated	remaining activity	106%
Cc1nn(C)c(C)c1/C=C/C(=O)N1CCC[C@H](Cc2ccc(Nc3ccccn3)nn2)C1	CDK5 with p35	enzyme activity, inhibitor, ADP detection	1 µM	–	activity vs control	102%
C[C@]1(O)CCCN(c2nc(Nc3ccc(S(=O)(=O)N[C@H]4CC[C@H](CN5CCN(c6ccc(C7CCC(=O)NC7=O)cc6F)CC5)CC4)cc3)ncc2C(F)(F)F)C1 (stereo partly shown)	CDK5	binding, competition with immobilised ligand	1 µM	–	remaining binding	16%
